Published values from different studies.
Lines come from different studies, so protocols differ. ± gives the spread as reported. Where no end group is shown, it is not given here. Ends that are not written are not given here. No end group written: not given here.
B1: enzyme (Bacillus pumilus, UniProt A8FFI9); chain EARSIAWSVDEFFKNREGTFVIQEVKEKSPWVYNKKRAKERFAPQSTFKVANALIGLQTGAVRDEYDIKYWDGVKREIDNWNRDHTLGSGMRDSVVWYYQAMARDIGEERMNHWVKAIHYGNKDISGGIDQFWLSSTLRISPIEQVRFLKQLYEETLPFDLKNMRTVKRMMVQEEEKHATLYGKTGSGSDIGWYVGFIKHEHKTYILATNIKGTGIEAKDITYRILKKYHLMEASV
B2: BMP4 mature (UniProt P12644); sequence looked up; chain SPKHHSQRARKKNKNCRRHSLYVDFSDVGWNDWIVAPPGYQAFYCHGDCPFPLADHLNSTNHAIVQTLVNSVNSSIPKACCVPTELSAISMLYLDEYDKVVLKNYQEMVVEGCGCR
B3: CYCS (Homo sapiens, UniProt P99999); sequence looked up; chain MGDVEKGKKIFIMKCSQCHTVEKGGKHKTGPNLHGLFGRKTGQAPGYSYTAANKNKGIIWGEDTLMEYLENPKKYIPGTKMIFVGIKKKEERADLIAYLKKATNE
B4: KLRK1/HCST (Homo sapiens); terbium label on SNAP-tag; chain MGWIRGRRSRHSWEMSEFHNYNLDLKKSDFSTRWQKQRCPVVKSKCRENASPFFFCCFIAVAMGIRFIIMVTIWSAVFLNSLFNQEVQIPLTESYCGPCPKNWICYKNNCYQFFDESKNWYESQASCMSQNASLLKVYSKEDQDLLKLVKSYHWMGLVHIPTNGSWQWEDGSILSPNLLTIIEMQKGDCALYASSFKGYIENCSTPNTYICMQRTV
B5: PDE6H (Homo sapiens, UniProt Q13956); sequence looked up; chain MSDNTTLPAPASNQGPTTPRKGPPKFKQRQTRQFKSKPPKKGVKGFGDDIPGMEGLGTDITVICPWEAFSHLELHELAQFGII
B6: GABBR2 42-466 (Homo sapiens, UniProt O75899); sequence looked up; chain WARGAPRPPPSSPPLSIMGLMPLTKEVAKGSIGRGVLPAVELAIEQIRNESLLRPYFLDLRLYDTECDNAKGLKAFYDAIKYGPNHLMVFGGVCPSVTSIIAESLQGWNLVQLSFAATTPVLADKKKYPYFFRTVPSDNAVNPAILKLLKHYQWKRVGTLTQDVQRFSEVRNDLTGVLYGEDIEISDTESFSNDPCTSVKKLKGNDVRIILGQFDQNMAAKVFCCAYEENMYGSKYQWIIPGWYEPSWWEQVHTEANSSRCLRKNLLAAMEGYIGVDFEPLSSKQIKTISGKTPQQYEREYNNKRSGVGPSKFHGYAYDGIWVIAKTLQRAMETLHASSRHQRIQDFNYTDHTLGRIILNAMNETNFFGVTGQVVFRNGERMGTIKFTQFQDSREVKVGEYNAVADTLEIINDTIRFQGSEPPKD
B7: gpsB (Bacillus subtilis, UniProt P0CI74); chain MLADKVKLSAKEILEKEFKTGVRGYKQEDVDKFLDMIIKDYETFHQEIEELQQENLQLKKQLEEASKKQPVQSNTTNFDILKRLSNLEKHVFGSKLYD
B8: GSTP1 3-210 I105V (Homo sapiens, UniProt P09211); QSY 35 label; chain PYTVVYFPVRGRCAALRMLLADQGQSWKEEVVTVETWQEGSLKASCLYGQLPKFQDGDLTLYQSNTILRHLGRTLGLYGKDQQEAALVDMVNDGVEDLRCKYVSLIYTNYEAGKDDYVKALPGQLKPFETLLSQNQGGKTFIVGDQISFADYNLLDLLLIHEVLAPGCLDAFPLLSAYVGRLSARPKLKAFLASPEYVNLPINGNGKQ
B9: RAD30 (Saccharomyces cerevisiae, UniProt Q04049); sequence looked up; chain MSKFTWKELIQLGSPSKAYESSLACIAHIDMNAFFAQVEQMRCGLSKEDPVVCVQWNSIIAVSYAARKYGISRMDTIQEALKKCSNLIPIHTAVFKKGEDFWQYHDGCGSWVQDPAKQISVEDHKVSLEPYRRESRKALKIFKSACDLVERASIDEVFLDLGRICFNMLMFDNEYELTGDLKLKDALSNIREAFIGGNYDINSHLPLIPEKIKSLKFEGDVFNPEGRDLITDWDDVILALGSQVCKGIRDSIKDILGYTTSCGLSSTKNVCKLASNYKKPDAQTIVKNDCLLDFLDCGKFEITSFWTLGGVLGKELIDVLDLPHENSIKHIRETWPDNAGQLKEFLDAKVKQSDYDRSTSNIDPLKTADLAEKLFKLSRGRYGLPLSSRPVVKSMMSNKNLRGKSCNSIVDCISWLEVFCAELTSRIQDLEQEYNKIVIPRTVSISLKTKSYEVYRKSGPVAYKGINFQSHELLKVGIKFVTDLDIKGKNKSYYPLTKLSMTITNFDIIDLQKTVVDMFGNQVHTFKSSAGKEDEEKTTSSKADEKTPKLECCKYQVTFTDQKALQEHADYHLALKLSEGLNGAEESSKNLSFGEKRLLFSRKRPNSQHTATPQKKQVTSSKNILSFFTRKK
UniProt Q9NZ08, sequence (whole entry, unmodified, looked up): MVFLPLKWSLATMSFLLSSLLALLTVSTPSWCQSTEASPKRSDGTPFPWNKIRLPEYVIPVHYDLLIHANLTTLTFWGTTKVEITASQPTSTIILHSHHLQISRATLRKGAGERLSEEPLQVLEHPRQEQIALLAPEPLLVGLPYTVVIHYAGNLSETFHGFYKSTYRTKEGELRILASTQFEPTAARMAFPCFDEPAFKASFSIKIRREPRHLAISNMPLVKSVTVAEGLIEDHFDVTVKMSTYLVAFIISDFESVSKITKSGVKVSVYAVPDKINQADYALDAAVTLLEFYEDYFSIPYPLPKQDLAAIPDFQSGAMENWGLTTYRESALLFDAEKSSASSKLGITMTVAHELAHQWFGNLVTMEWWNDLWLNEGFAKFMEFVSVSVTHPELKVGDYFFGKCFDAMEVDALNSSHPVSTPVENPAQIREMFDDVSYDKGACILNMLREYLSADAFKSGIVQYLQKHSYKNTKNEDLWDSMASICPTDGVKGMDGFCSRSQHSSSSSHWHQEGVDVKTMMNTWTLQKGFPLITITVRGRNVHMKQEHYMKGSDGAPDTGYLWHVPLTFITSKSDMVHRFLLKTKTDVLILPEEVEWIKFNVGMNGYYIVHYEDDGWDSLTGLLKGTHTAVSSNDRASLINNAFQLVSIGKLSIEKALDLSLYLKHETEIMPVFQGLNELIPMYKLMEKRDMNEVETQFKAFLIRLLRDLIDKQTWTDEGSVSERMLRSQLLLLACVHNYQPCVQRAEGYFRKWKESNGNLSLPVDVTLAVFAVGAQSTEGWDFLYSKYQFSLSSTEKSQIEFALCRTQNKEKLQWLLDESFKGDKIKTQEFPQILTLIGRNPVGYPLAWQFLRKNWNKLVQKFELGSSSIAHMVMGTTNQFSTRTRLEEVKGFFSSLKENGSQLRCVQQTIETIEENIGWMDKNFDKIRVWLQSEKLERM
UniProt P30041, sequence (whole entry, looked up): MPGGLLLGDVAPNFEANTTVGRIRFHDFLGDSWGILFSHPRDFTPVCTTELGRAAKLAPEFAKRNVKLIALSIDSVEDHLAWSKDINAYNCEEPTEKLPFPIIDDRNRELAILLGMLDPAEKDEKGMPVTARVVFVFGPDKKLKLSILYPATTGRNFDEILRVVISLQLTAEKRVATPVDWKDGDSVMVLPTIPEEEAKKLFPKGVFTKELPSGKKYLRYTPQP
UniProt P31266, sequence (whole entry, looked up): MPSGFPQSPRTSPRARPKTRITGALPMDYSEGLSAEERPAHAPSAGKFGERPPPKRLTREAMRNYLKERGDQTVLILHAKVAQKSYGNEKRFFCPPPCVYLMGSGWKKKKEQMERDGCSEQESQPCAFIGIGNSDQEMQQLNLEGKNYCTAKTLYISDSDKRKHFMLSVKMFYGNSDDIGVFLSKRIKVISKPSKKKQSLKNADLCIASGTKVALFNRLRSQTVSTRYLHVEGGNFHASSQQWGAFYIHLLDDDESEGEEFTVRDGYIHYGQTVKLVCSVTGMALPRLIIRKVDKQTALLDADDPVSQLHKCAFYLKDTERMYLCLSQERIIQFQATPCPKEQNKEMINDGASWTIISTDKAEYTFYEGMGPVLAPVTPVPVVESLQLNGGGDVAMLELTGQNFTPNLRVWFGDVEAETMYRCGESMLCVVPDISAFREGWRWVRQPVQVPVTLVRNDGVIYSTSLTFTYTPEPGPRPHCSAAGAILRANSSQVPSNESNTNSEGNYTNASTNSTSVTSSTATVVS
UniProt Q00013, sequence (whole entry, looked up): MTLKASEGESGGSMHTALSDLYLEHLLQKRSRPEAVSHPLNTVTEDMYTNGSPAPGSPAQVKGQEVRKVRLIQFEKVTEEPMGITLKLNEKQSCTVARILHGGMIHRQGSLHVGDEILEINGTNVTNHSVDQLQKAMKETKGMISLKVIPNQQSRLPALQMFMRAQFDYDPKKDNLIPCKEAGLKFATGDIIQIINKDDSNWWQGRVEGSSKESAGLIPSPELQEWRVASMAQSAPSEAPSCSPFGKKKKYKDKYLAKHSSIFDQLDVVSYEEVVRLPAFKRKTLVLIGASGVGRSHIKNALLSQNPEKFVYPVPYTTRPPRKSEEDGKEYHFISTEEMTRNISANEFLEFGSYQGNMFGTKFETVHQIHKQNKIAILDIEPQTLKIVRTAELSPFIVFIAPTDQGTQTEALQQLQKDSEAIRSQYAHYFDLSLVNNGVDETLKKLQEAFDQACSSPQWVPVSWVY
UniProt Q03696, sequence (whole entry, looked up): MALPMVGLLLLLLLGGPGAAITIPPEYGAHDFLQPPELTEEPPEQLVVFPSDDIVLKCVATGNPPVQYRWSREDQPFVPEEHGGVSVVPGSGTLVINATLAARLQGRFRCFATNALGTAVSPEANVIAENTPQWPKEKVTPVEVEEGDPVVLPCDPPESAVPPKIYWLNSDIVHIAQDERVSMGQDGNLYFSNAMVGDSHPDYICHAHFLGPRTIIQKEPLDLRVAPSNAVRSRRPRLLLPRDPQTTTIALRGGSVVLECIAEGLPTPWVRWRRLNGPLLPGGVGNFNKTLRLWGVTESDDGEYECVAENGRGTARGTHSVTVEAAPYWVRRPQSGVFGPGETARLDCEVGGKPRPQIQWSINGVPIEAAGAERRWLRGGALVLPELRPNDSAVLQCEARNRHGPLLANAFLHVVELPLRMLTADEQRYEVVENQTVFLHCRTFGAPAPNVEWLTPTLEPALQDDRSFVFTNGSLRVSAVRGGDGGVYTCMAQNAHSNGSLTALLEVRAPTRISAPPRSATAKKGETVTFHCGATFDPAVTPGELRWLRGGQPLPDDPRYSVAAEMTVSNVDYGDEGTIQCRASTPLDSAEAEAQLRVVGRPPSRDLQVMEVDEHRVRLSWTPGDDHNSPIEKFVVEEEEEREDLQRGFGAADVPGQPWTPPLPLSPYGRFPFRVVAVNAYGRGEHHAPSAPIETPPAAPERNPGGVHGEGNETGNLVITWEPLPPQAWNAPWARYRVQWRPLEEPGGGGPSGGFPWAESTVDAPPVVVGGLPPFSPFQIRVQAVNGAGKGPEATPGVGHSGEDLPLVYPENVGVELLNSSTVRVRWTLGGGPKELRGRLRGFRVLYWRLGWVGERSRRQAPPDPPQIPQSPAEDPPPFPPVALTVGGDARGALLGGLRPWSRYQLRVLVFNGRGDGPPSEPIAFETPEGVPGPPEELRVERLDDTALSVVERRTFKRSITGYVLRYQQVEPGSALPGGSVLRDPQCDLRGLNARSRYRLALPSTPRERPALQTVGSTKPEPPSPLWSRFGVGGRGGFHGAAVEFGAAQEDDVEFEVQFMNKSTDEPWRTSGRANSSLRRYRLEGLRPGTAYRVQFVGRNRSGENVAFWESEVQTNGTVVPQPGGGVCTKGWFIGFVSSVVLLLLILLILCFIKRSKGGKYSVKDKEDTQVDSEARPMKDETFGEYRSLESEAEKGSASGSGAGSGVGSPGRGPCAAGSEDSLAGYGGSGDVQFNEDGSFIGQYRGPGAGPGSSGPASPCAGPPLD
UniProt P52731, sequence (whole entry, looked up): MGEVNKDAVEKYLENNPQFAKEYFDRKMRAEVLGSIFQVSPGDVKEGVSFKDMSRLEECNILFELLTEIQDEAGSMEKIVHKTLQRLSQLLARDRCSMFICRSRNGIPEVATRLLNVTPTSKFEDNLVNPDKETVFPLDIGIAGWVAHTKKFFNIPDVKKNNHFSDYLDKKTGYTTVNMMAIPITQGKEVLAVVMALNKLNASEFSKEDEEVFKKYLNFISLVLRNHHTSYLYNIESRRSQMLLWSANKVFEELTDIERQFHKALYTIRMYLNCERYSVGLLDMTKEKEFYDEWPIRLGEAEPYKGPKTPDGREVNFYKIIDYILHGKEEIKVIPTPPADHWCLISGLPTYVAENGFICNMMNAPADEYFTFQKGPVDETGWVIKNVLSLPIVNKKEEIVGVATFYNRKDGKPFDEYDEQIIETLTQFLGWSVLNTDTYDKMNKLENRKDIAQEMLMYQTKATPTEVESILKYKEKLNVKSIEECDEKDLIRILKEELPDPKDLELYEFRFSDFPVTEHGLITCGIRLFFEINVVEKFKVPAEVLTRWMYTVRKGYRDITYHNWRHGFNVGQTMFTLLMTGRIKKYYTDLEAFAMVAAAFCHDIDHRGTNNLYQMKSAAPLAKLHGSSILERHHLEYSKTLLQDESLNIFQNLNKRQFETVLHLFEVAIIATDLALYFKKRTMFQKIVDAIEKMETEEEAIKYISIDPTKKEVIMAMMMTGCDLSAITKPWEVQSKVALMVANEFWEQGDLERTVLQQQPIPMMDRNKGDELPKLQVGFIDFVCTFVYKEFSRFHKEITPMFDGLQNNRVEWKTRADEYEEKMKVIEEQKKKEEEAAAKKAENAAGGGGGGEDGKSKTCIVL
UniProt Q9NPG2, sequence (whole entry, looked up): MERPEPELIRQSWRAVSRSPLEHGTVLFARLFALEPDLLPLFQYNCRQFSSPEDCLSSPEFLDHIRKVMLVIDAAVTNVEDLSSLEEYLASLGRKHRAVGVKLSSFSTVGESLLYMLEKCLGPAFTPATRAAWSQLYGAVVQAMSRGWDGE
UniProt O00585, sequence (whole entry, looked up): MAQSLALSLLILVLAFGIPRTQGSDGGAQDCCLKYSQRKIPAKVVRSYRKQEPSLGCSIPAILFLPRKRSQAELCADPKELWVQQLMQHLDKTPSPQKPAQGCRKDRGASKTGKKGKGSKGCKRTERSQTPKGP
UniProt Q29983, sequence (whole entry, looked up): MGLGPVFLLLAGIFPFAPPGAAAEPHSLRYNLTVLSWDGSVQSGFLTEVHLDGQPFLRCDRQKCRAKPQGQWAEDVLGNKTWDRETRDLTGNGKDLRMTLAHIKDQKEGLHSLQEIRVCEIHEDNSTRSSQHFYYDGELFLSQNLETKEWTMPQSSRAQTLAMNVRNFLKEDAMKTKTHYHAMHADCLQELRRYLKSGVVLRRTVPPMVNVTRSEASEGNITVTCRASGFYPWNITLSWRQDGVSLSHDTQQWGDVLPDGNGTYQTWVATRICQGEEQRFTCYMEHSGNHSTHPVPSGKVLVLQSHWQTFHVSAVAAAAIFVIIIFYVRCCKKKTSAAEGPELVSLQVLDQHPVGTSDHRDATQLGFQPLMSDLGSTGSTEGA

| Molecule | target or system | test | test system | conditions | measurement | result |
| --- | --- | --- | --- | --- | --- | --- |
| EPB41L2/CALM1 (Homo sapiens) | MPP1 (Homo sapiens, UniProt Q00013) | resonant mirror detection | – | NaCl 100 mM | Kd | 215 nM |
| IINFEKL | Endoplasmic reticulum aminopeptidase 1 (ERAP1, Homo sapiens, UniProt Q9NZ08, L733R) | substrate | peptide | pH 8.0, 27 °C, mutant L733R, with: L-AMC, peptide activator 100 µM | K1/2 of L-AMC | 0.22 ± 0.04 mM |
| B1 (enzyme) | CO/N=C(\C(=O)N[C@@H]1C(=O)N2C(C(=O)O)=C(COC(C)=O)CS[C@H]12)c1csc(N)n1 | steady-state kinetics | – | pH 7 | kcat/Km | 7200 ± 1000 M⁻¹ s⁻¹ |
| SIIVFEKL | OT-I CD8+ T cells | – | peptide | concentration not given, primed 5 d, OVA257 100 ng/mL restimulation, with: no TGF-beta1 | TNF-alpha+ cells | 72.3% |
| QDEVTDDYIGDNTTVDYTLFESLCSKKDVRNFKAW (CCR7 N-terminus (x)) | CCL21 (Homo sapiens, UniProt O00585) | NMR titration | peptide | – | Kd | 150000 ± 30000 nM |
| IINFEKE | Endoplasmic reticulum aminopeptidase 1 (ERAP1, Homo sapiens, UniProt Q9NZ08, F803R) | L-AMC hydrolysis, activator | peptide | 100 µM, 5 min, pH 8.0, 27 °C, mutant F803R, with: L-AMC varied from 0 µM | Vmax | 179 ± 1 nmol/min/µg |
| B2 (BMP4 mature) | Grem2 22-168, glutathionylated (Mus musculus, UniProt O88273) | SPR | – | pH 7.5, 25 °C, NaCl 500 mM, apparent, steady-state | Kd | 78.5 ± 5.8 nM |
| {5,6‑carboxyfluorescein}-ATFLIQEYFRKFKKRKEQGLVGKPSQ (CACNA1C 1650-1675 (Oryctolagus cuniculus); N-terminal fluorescein) | Calm1 fragment (Rattus norvegicus) | fluorescence polarisation | peptide | pH 7.4, 22 °C, 100 mM KCl, without Ca2+ | Kd | 804000 ± 103000 nM |
| B3 (CYCS) | NGB (Homo sapiens, UniProt Q9NPG2) | ITC | – | – | Kd | 4670 nM |
| KHKILHRLLQDSS (NCOA2 residues 686-698 (Mus musculus)) | RXRA LBD 223-462 (Homo sapiens, UniProt P19793) | ITC | peptide | pH 8.0, 37 °C, single-site fit, with: 9cRA | Kd | 1000 ± 50 nM |
| Ncan, 125I label, chondroitin sulfate chains (Rattus norvegicus, UniProt P55067) | Ng-CAM mature (Gallus gallus, UniProt Q03696) | radioligand binding | – | NaCl 150 mM, saturation | Kd | 1.8 nM |
| ARTK(Me3)QTARKSTG (histone H3 peptide 2-13 (UniProt P68431); K4me3; sequence looked up) | DIDO1 PHD finger 266-325 (UniProt Q9BTC0-4) | fluorescence titration, NMR titration | peptide | – | Kd | 1000 nM |
| VKKATATTTWMVPTAQ (L3MBTL3 55-70 (Homo sapiens, UniProt Q96JM7-2); sequence looked up) | Rbpj 53-474 (Mus musculus, UniProt P31266) | ITC | peptide | pH 6.5, 25 °C, NaCl 150 mM, one site model | Kd | 530 nM |
| B4 (KLRK1/HCST) | MICA 24-297, Alexa Fluor 647 on Cys273 (Homo sapiens, UniProt Q29983) | TR-FRET | HEK293 TRex | apparent, in cells | Kd | 200 nM |
| benzalkonium chloride | Saccharomyces cerevisiae | vacuole-vacuole fusion, antagonist | – | with: mastoparan 20 µM | concentration for maximal antagonism | 10 µg/mL |
| DLAT L2 domain, lipoylated (Homo sapiens) | PDHA1/PDHB α2β2 heterotetramer 30-390 S203A/S271A (Homo sapiens) | ITC | – | pH 7.5, 20 °C, KCl 10 mM | Kd | 1300 nM |
| KCNTATCATQRLANFLVHSSNNFGPILPPTNVGSNTY (Pramlintide; not fully specified (C-terminus, bridges); cysteine pairing not given here; sequence looked up) | – | – | peptide, obese or overweight humans | dose not given | back pain incidence | 5.4% |
| B5 (PDE6H) | PDE6C GAF-A/GAF-B 42-458 (Gallus gallus, UniProt P52731) | BLI | – | 30 min, with: cGMP 100 µM | Kd | 10000 nM |
| B6 (GABBR2 42-466) | GABBR1 30-459 (Homo sapiens, UniProt Q9UBS5-2) | ITC | – | – | Kd | 94.9 nM |
| rhodamine-QEELII (Cdh5 779-784 (Mus musculus); reading uncertain; N-terminal rhodamine; rhodamine = not defined here) | Pard3 581-689 (Mus musculus, UniProt Q99NH2) | fluorescence polarisation | peptide | 100 nM, pH 7.4, 298 K, NaCl 100 mM | Kd | 28000 nM |
| B7 (gpsB) | ftsZ, FITC label (Bacillus subtilis, UniProt P17865) | fluorescence titration | – | – | Kd | 48000 ± 2000 nM |
| SIYNFEKL | OT-I CD8+ T cells | – | peptide | concentration not given, primed 5 d, OVA257 100 ng/mL restimulation, with: 20 ng/mL TGF-beta1 from day 2 | IL-2+ cells | 75.6% |
| B8 (GSTP1 3-210 I105V) | PRDX6 1-224, Alexa 546 label (Homo sapiens, UniProt P30041) | FRET | – | pH 7.4, apparent, with: GSH 1 mM | Kd | 101 nM |
| B9 (RAD30) | REV1, Cy5 label (Saccharomyces cerevisiae, UniProt P12689) | single-molecule TIRF | – | calculated from kon, koff | Kd | 4.5 nM |
| UGT1A9 (Homo sapiens, UniProt O60656) | COc1ccc2c(=O)c(O)c(-c3ccccc3)oc2c1 | steady-state kinetics | – | pH 7.4, 37 °C | Vmax/Km | 37000 µL/min/mg |

Some of these lines once more:
| Molecule | target or system | test | test system | conditions | measurement | result |
| --- | --- | --- | --- | --- | --- | --- |
| QDEVTDDYIGDNTTVDYTLFESLCSKKDVRNFKAW (CCR7 N-terminus (x)) | CCL21 (Homo sapiens, UniProt O00585) | NMR titration | peptide | – | Kd | 150000 ± 30000 nM |
| {5,6‑carboxyfluorescein}-ATFLIQEYFRKFKKRKEQGLVGKPSQ (CACNA1C 1650-1675 (Oryctolagus cuniculus); N-terminal fluorescein) | Calm1 fragment (Rattus norvegicus) | fluorescence polarisation | peptide | pH 7.4, 22 °C, 100 mM KCl, without Ca2+ | Kd | 804000 ± 103000 nM |
| benzalkonium chloride | Saccharomyces cerevisiae | vacuole-vacuole fusion, antagonist | – | with: mastoparan 20 µM | concentration for maximal antagonism | 10 µg/mL |
